Experimental data of several laboratories.
Numbered parts are unrelated; each lists some results of a single study. Changes are numbered by the printed parent chain.

Sample 1
Target: CCNB2, cyclin fold, Cln2 fusion (human)
Technique: yeast growth competition, sequencing
Sample: yeast
Setting: weak parent motif
Reference: not given
Direction: higher = stronger binding
Parent: CDT1 docking peptide (human); PPARRRLRLSVDE
Change | normalised enrichment score
R4A | 0.174
R5A L7A | 0.242
L9F | 0.277
D12A | 1.64
S10A | 0.149
V11A | 0.27
P2A | 0.668
R5A | 0.13

Sample 2
Target: RNA binding protein fox-1 homolog 2, RRM domain, GST-SBP tag (RBFOX2, Homo sapiens, UniProt O43251-10, residues 100-194)
Technique: RNA Bind-n-Seq
Form: RNA
Sample: in vitro
Concentration: 365 nM
Setting: natural RNA segment, single round, ends assumed
Reference: no-protein control
Direction: higher = stronger binding
Shared flanks, not repeated: GGGAGUUCUACAGUCCGACGAUC … UGGAAUUCUCGGGUGCCAA
Construct (chain): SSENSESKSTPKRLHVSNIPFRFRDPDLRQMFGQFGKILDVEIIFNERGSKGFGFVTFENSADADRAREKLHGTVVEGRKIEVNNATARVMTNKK
Strand | RBNS enrichment (R)
UUAUUUUCCAUUUGACAUUAGGGCCUUUCCAAAAUGAAUGUGAGGAAUUGCUUUCACUUCAAGACUUUCCUUCUUUUCACUAAAACUCUAGAAGGUGUUACAAGGGGGAG | 0.457
UAAGUUAAACAUAAGACACAGGGGCUGUUGCUUUUGAACAGAACCCUAUAUUACUCUCCUGGGAUCUGAGUUUCUGCAGGUCAUUUGUAUGUAGGACCAGGAGUAUCUCC | 0.277
GAACCUGCACUUGGUGCUAAUCUGAGGGGAGGAAGGUGGGCAGGGUCUUGGACUCAAAGGCUAAACUGAUCCAGUCCUUUCUCCUUUGUGUCAAUAAAAGGCUAAACUGA | 0.274
GUCUAUUUGGACUCUAAGCUCUACGGGUGACAGAUCUUGUUUCUGAAGAUGGUUUAAGUUAUAGCUUCUUAAACGAAAGAAUAAAAUACUGCAAAAUGUUUUUAUAUUUG | 1.22
GCAUUGGAAACAGCCGCACUAUGGCUUCUUUGAGACCCUAUUUCCUUUUCUGGUUGUGGACAAGGCUGCCUUAGGACUUUGCUAACCCAAUAAAACCUUUAGAUUCUGGU | 0.448
GGCGGGGCGAUCGGGUCUCAGCCCCUGCCUUCCCCAGUCUCUGGGUCACCCGAAUUUUCCCACCCCUGCUUCUCCCCGAGGAGGUUGAGCUCUUGAGCAAGUUGGGACUU | 0.4
CCCAUGAGAUCGGACACUGUCCGCAGUCCGAUAUGCCACCAGUGAGCUAGAGCAAUCCAGGAGACUGUUUGGUAGAUGUUCACAACUUCACCAAACUUAAAUAGCAGGAG | 0.366
ACAUUUUGUGACGAAUGGUGUGGCCUGAGGCCACUUGACAGACUGCUGCCUGGGCUUGCUCAGGUCCCCACUAAUAUUUUAAUGUGCCAAUGCCUGUGGAGAGUCUACAG | 0.464
CGGUAUUUUAACUUUCUGCCUCGGCCUCUGUGGAUGCAGAAAUCUGCCCUACAAAAUGCUCUUCAUUGGUUGUCUCUGUGAGAGCACUGUCCCCACCCAACCUGUCACAA | 0.453
UAAGCUUGCGUAGAAUUGCAGGUCUCUGUACGGGCCAGUUUCUCUGCCUUCUUCCAGGAUCAGGGGUUAGGGUGCAAGAAGCCAUUUAGGGCAGCAAAACAAGUGACAUG | 0.832
GAACUAAACUAGUAAAAAUAUCUGAACAAAAAACCUUUCGUUGUUGGCAUAAAAAUGUGAUACACUUAGAGACAUUUUGUUUAUUGCAUAUAAAUCUAAUUUUUCCAUAA | 0.539
ACUAAUCUUACUUCCACAAAAUAUGUGAAUUUGCUGCUUCUGAGAGGCAAUGUGAAAGAGGGAGUAUUACUUUUAUGUACAAAGUUAUUUAUUUAUAGAAAUUUUGGUAC | 0.756

Sample 3
Target: Interferon regulatory factor 5, full length, phosphomimetic (IRF5, Homo sapiens, UniProt Q13568-2, residues 1-514, K96S/S451D/S453D/S456D/S462D)
Technique: protein-binding microarray
Form: double-stranded DNA, one strand shown
Sample: in vitro
Concentration: 250 nM
Setting: 60-bp whole probe
Together with: salmon DNA 0.4 mg/ml
Reference: random background probes
Direction: higher = stronger binding
Shared flanks, not repeated: GCCTAGCAC … GTCTTGATTCGCTTGACGCTGCTG
Strand | log fluorescence [z-score]
TTAGATCTCAGTATTGATTAGTGCTAG | 0.615
TTAGGCCTGCTTTTCCTTTAGTGCTAG | 0.0914
GACGATCTCAGTCTCGATACGTGCTAG | 0.787
TTAGATATCGGGAATCGATTAGTGCTA | 1.83
TCATGTTTATGTCTGGGACTGTGCTAG | -0.158
CTCCTTCTCTAACCTCTCTAAGTGCTA | 0.335
TTCGGACTGGGGTTTCGGTTAGTGCTA | 6.86
TTAGGTTTCGGTCTCCGTTAGTGCTAG | 10.6
TTTATTTATTTATTTATTTAGTGCTAG | 1.35
TAAGGTATCGGGACTGGGTTAGTGCTA | 0.761
TAATTTCCATTTTCTAAATTCGTGCTA | 2.59
TTAGGACTGAGACTGGATTAGTGCTAG | -0.514
GCCTTGTTCGTCGCTCCGCTGTGCTAG | -0.312
CCAACTCTGTTTTCGCTTTCTGTGCTA | 4.65
TTAGGTTTCATTATCCTTTAGTGCTAG | 3.38
TCATATACACACTATAGTACTGTGCTA | 0.327
TTAGGTCTCGTACTGCTTTAGTGCTAG | -0.0627
AGCTACTGAGTGGCAACACAGTGCTAG | -0.398
AAACTAGTGTTTTTCTCCTAGTGCTAG | 0.641
GACGGACTGGACTTTGGGGACGTGCTA | -0.704
GACGACTTCAGTCTCGAGACGTGCTAG | -0.0914
AGTGTTATAATATTATTGCAGTGCTAG | 0.599
AATTAAATGATATATATCCATGTGCTA | 1.01
CTAGGTTTCGGGACTGGGTTAGTGCTA | 5.41
TTAGGTTTCGGTATCGCTTAGTGCTAG | 10.9

Sample 4
Target: Ras GTPase-activating protein-binding protein 1, C-terminal RGG region (G3BP1, Homo sapiens, UniProt Q13283)
UniProt Q13283, sequence (whole entry, looked up): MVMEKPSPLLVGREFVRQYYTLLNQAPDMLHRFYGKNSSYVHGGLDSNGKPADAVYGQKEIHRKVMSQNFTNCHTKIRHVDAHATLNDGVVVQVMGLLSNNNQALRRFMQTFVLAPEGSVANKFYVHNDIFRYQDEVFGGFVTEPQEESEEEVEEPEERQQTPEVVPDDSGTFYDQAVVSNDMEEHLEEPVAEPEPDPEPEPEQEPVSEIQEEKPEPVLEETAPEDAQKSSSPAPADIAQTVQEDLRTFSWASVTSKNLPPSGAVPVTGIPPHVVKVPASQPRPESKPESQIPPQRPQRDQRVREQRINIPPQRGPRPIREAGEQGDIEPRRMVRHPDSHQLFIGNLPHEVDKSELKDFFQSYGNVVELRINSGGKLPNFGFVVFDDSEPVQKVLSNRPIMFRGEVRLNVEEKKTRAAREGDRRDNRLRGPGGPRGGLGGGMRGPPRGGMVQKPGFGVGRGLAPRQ
Technique: RNA Bind-n-Seq
Form: RNA
Sample: in vitro
Concentration: 1 µM
Setting: whole 134-nt RNA, ends assumed
Together with: 150 mM KCl
Reference: input library
Direction: higher = stronger binding
Shared flanks, not repeated: GGGAGUUCUACAGUCCGACGAUC … UGGAAUUCUCGGGUGUCAAGG
Strand | log2 enrichment
CUGUGCUACACAUCGUAUGUACCGAAUCGGGUUUUUUUGGUUUUUUUGGGUUUUUUUGGGGAAAGUAUUAUGUUACGCCGUUCGGAUCUG | -1.39
AAGUCCUGUGCUACACAUCGUAUGUACCGAAUCGGAAAAAAAGGUUUGGUUUUUGGAAAGUAUUAUGUUACGCCGUUCGGAUCUGCACUU | -1.89
CUCAAGUCCUGUGCUACACAUCGUAUGUACCGAAUCGGAAGGAAGGGGAAGGGGAAAGUAUUAUGUUACGCCGUUCGGAUCUGCACUUCC | -0.947
CAAGUCCUGUGCUACACAUCGUAUGUACCGAAUCGGCCCCGGGGCCCCGGCCCCGGAAAGUAUUAUGUUACGCCGUUCGGAUCUGCACUU | -1.92
UGGGAGGUGGAUUUUGUUUAUUUUUUUAGCUCAUUUCCAGGGGUGGGAAUUUUUUUUUAAUAUGUGUCAUGAAUAAAGUUGUUUUUGAAU | 3.09
CCUGUGCUACACAUCGUAUGUACCGAAUCGGUUUUUUUGGUUUUUUUGGGGUUUUUUUGGAAAGUAUUAUGUUACGCCGUUCGGAUCUGC | -1.7
AAGUCCUGUGCUACACAUCGUAUGUACCGAAUCGGGGUUUUGGUUUUGGGUUUUGGGAAAGUAUUAUGUUACGCCGUUCGGAUCUGCACU | -1.1
UGGCCCUGGUGGCAUGCGGGGAGGAAGAGGUGGCCUCAUGGAUCGUGGUGGUCCCGGUGGAAUGUUCAGAGGUGGUCGUGGUGGAGACAG | 3.71
CAAGUCCUGUGCUACACAUCGUAUGUACCGAAUCGGGAAAAGGAAAAGGAAAAGGGAAAGUAUUAUGUUACGCCGUUCGGAUCUGCACUU | -2.25
CCUGUGCUACACAUCGUAUGUACCGAAUCAAAUUUUUAAAUUUUUUUAAACCCCCCCAAAAAAGUAUUAUGUUACGCCGUUCGGAUCUGC | -0.798
CACAGACAACACGCACCCACACAGACACAGAGGGAAGGGAUUGGGAUGGGGACAGGGUGCACAGCAGGGCGGGGUAGGACCCCAGCCCCU | -0.4
UCCUCAAGUCCUGUGCUACACAUCGUAUGUACCGAAUCGGUUUGGUGGUGGAAAGUAUUAUGUUACGCCGUUCGGAUCUGCACUUCCAGC | -0.795
AGUCCUGUGCUACACAUCGUAUGUACCGAAUCGGGUUUUUUUGGGAAAGGGUUUGGGAAAGUAUUAUGUUACGCCGUUCGGAUCUGCACU | 1.05
AGUCCUGUGCUACACAUCGUAUGUACCGAAUCGGAAAAGGGGAAAAGGGAAAAGGGGAAAGUAUUAUGUUACGCCGUUCGGAUCUGCACU | -0.437

Sample 5
Target: Histone acetyltransferase KAT6A, both winged helices, GST fusion (KAT6A, Homo sapiens, UniProt Q92794, residues 1-181)
Technique: protein binding microarray
Form: double-stranded DNA, one strand shown
Sample: in vitro
Concentration: not given
Setting: 8-mer, flanks averaged, mean of 2 arrays, mostly near background
Reference: not given
Direction: higher = stronger binding
Construct (chain): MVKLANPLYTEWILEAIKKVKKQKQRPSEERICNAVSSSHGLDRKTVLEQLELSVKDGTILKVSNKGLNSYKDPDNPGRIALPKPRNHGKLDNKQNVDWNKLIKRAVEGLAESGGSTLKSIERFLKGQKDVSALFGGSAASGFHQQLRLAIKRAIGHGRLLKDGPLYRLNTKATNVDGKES
Strand | E-score
AATAACCC | 0.0183
ATCTGACG | 0.025
AAAATGCT | -0.144
ACTCCATG | -0.061
CCGCTAAA | 0.233
CCGCGGAA | 0.313
AATGCTCT | -0.103
ATCGGGCC | 0.00818
GCCTCCCC | 0.0604
AGCCCACC | -0.025
GAAGGGAA | -0.011
CTAGTCGA | -0.12
AACAAGCA | -0.0839
CGGATTGC | 0.246
ACGAAACT | -0.179
ACGTTAAA | 0.13
CATTGCGG | 0.182
GCCATGCA | -0.061
ATTCCGCC | 0.115
AAGGCAGT | -0.183
AGTTATCA | -0.111
AAAGCCTG | -0.0694
CTTGTTTA | -0.0236
AATTTCTG | -0.137

Sample 6
Target: Sal-like protein 4, full length isoform A (SALL4, Homo sapiens, UniProt Q9UJQ4, residues 1-1053)
UniProt Q9UJQ4, sequence (whole entry, looked up): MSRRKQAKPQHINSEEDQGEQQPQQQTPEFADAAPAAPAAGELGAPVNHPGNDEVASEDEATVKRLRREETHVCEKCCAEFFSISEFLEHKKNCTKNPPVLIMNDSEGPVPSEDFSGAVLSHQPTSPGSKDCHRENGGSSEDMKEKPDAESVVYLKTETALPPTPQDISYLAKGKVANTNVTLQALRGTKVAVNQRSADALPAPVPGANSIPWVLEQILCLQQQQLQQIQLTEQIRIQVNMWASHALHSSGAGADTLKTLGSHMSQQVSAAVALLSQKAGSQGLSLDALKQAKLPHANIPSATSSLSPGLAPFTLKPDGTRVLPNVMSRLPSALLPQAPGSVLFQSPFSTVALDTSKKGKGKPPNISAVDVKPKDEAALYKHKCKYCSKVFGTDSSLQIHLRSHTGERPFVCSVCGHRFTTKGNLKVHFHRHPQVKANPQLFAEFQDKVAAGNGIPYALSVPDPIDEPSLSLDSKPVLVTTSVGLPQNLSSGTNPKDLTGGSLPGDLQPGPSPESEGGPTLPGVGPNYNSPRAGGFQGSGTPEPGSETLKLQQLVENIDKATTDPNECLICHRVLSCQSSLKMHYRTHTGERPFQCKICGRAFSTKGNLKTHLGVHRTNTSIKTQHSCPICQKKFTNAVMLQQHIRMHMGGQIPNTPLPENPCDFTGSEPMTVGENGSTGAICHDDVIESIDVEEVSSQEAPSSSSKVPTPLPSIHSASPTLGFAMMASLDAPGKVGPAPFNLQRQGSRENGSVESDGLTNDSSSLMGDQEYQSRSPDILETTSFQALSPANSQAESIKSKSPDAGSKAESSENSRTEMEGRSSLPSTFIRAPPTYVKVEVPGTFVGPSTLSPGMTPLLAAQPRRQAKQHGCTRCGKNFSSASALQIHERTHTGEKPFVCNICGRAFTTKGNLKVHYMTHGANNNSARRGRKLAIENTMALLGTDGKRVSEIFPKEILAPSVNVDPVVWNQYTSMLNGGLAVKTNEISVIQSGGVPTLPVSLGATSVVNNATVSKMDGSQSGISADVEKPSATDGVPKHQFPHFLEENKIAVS
Technique: universal PBM
Form: double-stranded DNA, one strand shown
Sample: in vitro
Concentration: 600 nM
Setting: 8-mer, flanks averaged, mean of replicates
Direction: higher = stronger binding
Strand | E-score
AAGTAATG | 0.184
CCAGGACG | -0.23
CAGAATCA | -0.0669
CGAACTCC | -0.102
CGATAATC | 0.0963
ATAGTAAA | 0.293
CCAGCCGC | -0.301
ATAACACC | 0.233
CCTGCAAC | -0.0527
CAGGGGCC | -0.368
TCCTCTCA | -0.00829
AAGACCTG | -0.0882
GCTCACGA | -0.25
GTCCAACA | -0.121
CTCCCATC | 0.00344
CCCTCACG | -0.342
GCCGTACC | -0.274
ACATAGGT | 0.163
GGAAGCGA | -0.131
AAAAGAAG | 0.188
AAATCAGC | 0.12
ATCATCCC | 0.0699
CTCCAAGA | -0.0171
CAGATACC | -0.0597
GAATCACA | -0.00897
